Measured values gathered from unrelated publications.
Parts stem from different laboratories: compare values within a part only.

Sample 1
Target: RNA binding protein fox-1 homolog 2, RRM domain, GST-SBP tag (RBFOX2, Homo sapiens, UniProt O43251-10, residues 100-194)
Method: RNA Bind-n-Seq
Form: RNA
Medium: in vitro
Concentration: 365 nM
Setting: natural RNA segment, single round, ends assumed
Baseline: no-protein control
Direction: higher = stronger binding
Endpoint: RBNS enrichment (R)
Constant ends, left off below: GGGAGUUCUACAGUCCGACGAUC … UGGAAUUCUCGGGUGCCAA
Residues (chain): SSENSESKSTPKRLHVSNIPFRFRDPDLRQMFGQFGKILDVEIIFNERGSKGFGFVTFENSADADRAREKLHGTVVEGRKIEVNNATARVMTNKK
UUAAUGGGAUUUCAUGGGGUUUGGUUGUGCUGAUAGGGUAAGGGGAGGCUGCUUUCUGCCCUUCUCCCCACUCCCAUCUGAUUUACUUAAUUCAGUCUCAGCUGCUGAAA: 0.324
AGCGUCUUGCAGCUUUUUAUGGUGUUUAUCUAAUACACUUAAGCUGCAGUCCCAAAAUUAGGGGUCCUUCAGUCUUGGAGACUAUAAGGGAGCCUCUGCACCCAGGGAAA: 0.229
UCCAUAGUCUCCACUGUGAACUGAGGAGGGGAGGGGUGUGCUGGGGAAUAAAUCUUGUAUGAGAACAUCUUUAAGAGACUGAUGCUGAAUGGUGUCCUACCCUUGAUAGG: 0.442
CGAGCCCAGAGUGUUCAAAGGCGCCAAGGUCCUGGCAGGUUACAAAGGGUUUUGUGUUGGCAUGAGUUCUGGAACACAUCUCAGGCUGUCAGAGCAAAGUGAUCCAGAAU: 0.896
UUUUUCUUCUCUUAAUGGGAAUCGUGAUGGUGUUGAGUUAUUUCACUGGUGGGGUUAAUAUAGCAUGUUAUCCUGUCUAUCUUUUGAAGAUUUCUGUAUAAGACUGUUGA: 3.46
GGCGCCCGUCCAGGGACACACACAGUCUUCACUGUGCUGCAGCCAGAUGAAGUCUCUCAGAUGGGUGGGGAGGGUCAGCUCCUUCCAGCGAUCAUUUUAUUUUAUUUUAU: 0.496
UCAGCCUGGCCUCCAGCAGAGCAGAGGCUCUGGAGCUCCACAUCCUGCCUGCAGGGAGCCCUCAGGGUGCCCUCCAGAGUACAGGGAGAAACUAAAGGCAAUAACAGAAG: 0.202
CUGGGGCAAGAGGGCUAGAUUUCCUCAUUUUGUUAUGAGACUAGAUUGGUACCAGUAGAUCAGCUGCCUAGCGAGGGCAGGUUUCUUCUUUGCAUCUGUGUGGCUUGCUU: 2.14

Sample 2
Target: Hepatocyte nuclear factor 3-alpha (Foxa1, Mus musculus, UniProt P35582, residues 1-468, full length assumed)
UniProt P35582, sequence (whole entry, looked up): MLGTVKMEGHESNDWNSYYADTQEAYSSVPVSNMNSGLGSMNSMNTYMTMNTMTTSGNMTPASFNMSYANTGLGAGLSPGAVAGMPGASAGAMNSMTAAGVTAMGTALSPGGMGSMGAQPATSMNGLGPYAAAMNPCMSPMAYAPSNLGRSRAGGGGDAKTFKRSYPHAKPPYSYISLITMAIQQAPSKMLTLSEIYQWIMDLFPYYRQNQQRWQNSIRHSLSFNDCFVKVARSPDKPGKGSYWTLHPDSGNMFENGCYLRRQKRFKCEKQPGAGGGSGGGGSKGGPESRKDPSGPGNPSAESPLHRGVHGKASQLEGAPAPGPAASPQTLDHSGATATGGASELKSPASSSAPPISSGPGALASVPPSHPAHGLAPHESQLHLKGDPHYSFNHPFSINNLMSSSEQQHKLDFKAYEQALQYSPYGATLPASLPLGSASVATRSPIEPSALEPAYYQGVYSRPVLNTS
Method: EMSA with sequencing
Form: double-stranded DNA, one strand shown
Medium: in vitro
Concentration: 10 and 20 nM
Setting: whole designed probe, mean of two concentrations, ends assumed
Baseline: negative control set to 0
Direction: higher = stronger binding
Endpoint: normalised bound fraction
Constant ends, left off below: GTGAGCGGTGCCCATTGATGGGGAAC … TTTCACTGGGATCGTGGGGAC
AGAACTTGGGTTGCCACAAAGAGATCTGAACTTGTTTTAACTTGTTAAGTCAGTTTTAGAAATACAAAGGTTTAAAGCAGTTTGATGGCTATGTAAATAAGGAAGTTTGCAAAGAACCTGGGTCTACCTCTGGCTATTCAGCAGCTTGGCAAGAGATGACCCGAGTTCTCAGAGTCCCCATCTTTGCATCTGT: 0.415 ratio
GTCCAGAAACCTGTCACACTACTAATTTCAACCCCTTGGCCAGAGCTCAGGCACATGGCTGCACCTAGCTGCAAGGGAAGCTAGGAAGGTCTGAGATTATTCTGCACAGCCATGAACTCAGCTAAAAGCCAATCAAATATTTGTAAATAATCTAAACAATTTTAGATAGTGATGTATCCTGGGAAAGAACAAA: 0.155 ratio
ATCTTCCCCCTCTTCCTTGCCGCTCCCCAACACCTTCCCGGGTTATTTGCAGATAGGAAAATAAATAAAGCCGGCATTCGTTAACCCTCTTCTGGCGCAAACTGCTGTTTGCTCTGGATGAATCATGGTCCTTTGGCGACGCCAGGCTCCGGGAGAGCAAAGCACCGTGTCAGGGCCATGATCCGGGGTGGCC: 0.314 ratio
GCATGAGACAGCATTTCTTCTTGTCCTCGGGGCCTGCAGGAAGTTTTTAAGTAATCTGCTTTTGTGCCTCTTCCAAATCTCCTCCTATGACCCAGATTACCTTACATCACAAGAAACAATCAATAAAAGTGGTTTGTGTTCGTGAGTGCCGTGTGTTTGACAAAGGCGTTGATAACTGAGAGCTGGTAGTGGA: 0.00933 ratio
TTAGGACCTCCCCTGCCACCATCTGGGCAGTGAAGCTCTGCCGGTGTGCTACTGGCAGTGTCCCGGGTTGTGTGTGGAGACACTGAGCACTGTTGTTTACTTTAGAAGTTTATTGTCCCCAGAATGCTGCTCCCCCACAACTGTCTCCTGCAGCATGAAGGCTGACATTGTATCGTGGCTGTGTATCCACATG: 0.498 ratio

Sample 3
Target: Transcription factor SOX-2, HMG box (SOX2, Homo sapiens, UniProt P48431, residues 19-118)
UniProt P48431, sequence (19-118, looked up): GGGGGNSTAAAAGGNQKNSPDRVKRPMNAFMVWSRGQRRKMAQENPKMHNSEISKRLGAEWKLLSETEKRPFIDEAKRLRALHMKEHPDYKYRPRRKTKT
Method: protein-binding microarray
Form: double-stranded DNA, one strand shown
Medium: in vitro
Concentration: not given
Setting: k-mer, scored over probes, only values ≥0.25
Direction: higher = stronger binding
Endpoint: E-score
AAAAATT: 0.273
AATAGAA: 0.388
AATAGTA: 0.311
CAATTTC: 0.336
CGATTCA: 0.326
ATAATGG: 0.376
ATTATTG: 0.422
ACACAAT: 0.458
TATTCAA: 0.357
AAATTAA: 0.296
ATCATTG: 0.306
ACAATAC: 0.426
ATTAATA: 0.351
CAATGAA: 0.377
ATGCGTA: 0.278
TGTATAA: 0.271
AATGGCT: 0.281
CAATATA: 0.358
AATATTA: 0.332
ATTATAA: 0.372
AAAACAA: 0.337
ATGTAAT: 0.299
GTGAAAA: 0.329
ACATTCA: 0.388

Sample 4
Target: Sal-like protein 4, full length isoform A (SALL4, Homo sapiens, UniProt Q9UJQ4, residues 1-1053)
UniProt Q9UJQ4, sequence (whole entry, looked up): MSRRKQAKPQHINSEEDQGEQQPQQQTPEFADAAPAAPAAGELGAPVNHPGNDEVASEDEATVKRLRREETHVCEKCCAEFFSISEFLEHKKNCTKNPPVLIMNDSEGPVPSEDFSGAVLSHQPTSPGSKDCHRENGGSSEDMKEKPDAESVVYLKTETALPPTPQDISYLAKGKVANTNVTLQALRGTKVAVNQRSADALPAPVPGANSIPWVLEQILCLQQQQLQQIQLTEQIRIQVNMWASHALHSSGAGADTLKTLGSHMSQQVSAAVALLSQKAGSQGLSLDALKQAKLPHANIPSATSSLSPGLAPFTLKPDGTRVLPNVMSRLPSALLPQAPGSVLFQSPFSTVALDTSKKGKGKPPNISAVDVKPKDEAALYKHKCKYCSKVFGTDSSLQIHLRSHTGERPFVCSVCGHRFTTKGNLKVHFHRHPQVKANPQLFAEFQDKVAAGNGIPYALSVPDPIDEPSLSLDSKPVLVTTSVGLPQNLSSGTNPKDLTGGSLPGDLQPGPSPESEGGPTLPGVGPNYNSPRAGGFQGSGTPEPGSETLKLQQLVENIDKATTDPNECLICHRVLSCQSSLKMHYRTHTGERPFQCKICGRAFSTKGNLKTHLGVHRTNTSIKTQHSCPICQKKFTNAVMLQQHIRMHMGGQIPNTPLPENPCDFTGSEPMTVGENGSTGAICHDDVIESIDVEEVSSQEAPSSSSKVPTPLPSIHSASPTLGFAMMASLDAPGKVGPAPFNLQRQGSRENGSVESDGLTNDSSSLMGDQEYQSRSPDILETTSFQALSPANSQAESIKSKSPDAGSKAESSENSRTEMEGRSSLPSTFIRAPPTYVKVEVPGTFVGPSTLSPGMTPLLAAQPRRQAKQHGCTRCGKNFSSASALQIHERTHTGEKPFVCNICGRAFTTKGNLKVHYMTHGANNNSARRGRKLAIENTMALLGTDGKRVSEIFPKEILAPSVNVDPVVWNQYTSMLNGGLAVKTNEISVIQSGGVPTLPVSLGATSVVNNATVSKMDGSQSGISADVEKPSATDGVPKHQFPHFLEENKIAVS
Method: universal PBM
Form: double-stranded DNA, one strand shown
Medium: in vitro
Concentration: 600 nM
Setting: 8-mer, flanks averaged, mean of replicates
Direction: higher = stronger binding
Endpoint: E-score
CAAGGCGG: -0.3
AATTCACA: 0.281
GATGCTTA: 0.0514
CTCAGATC: -0.0184
GTTAATTA: 0.283
CAAATATC: 0.276
CTTGGCAA: -0.0704
GAATACGC: 0.0867
AAAACCAG: 0.0685
ACTTAGCG: 0.0196
CTCGACTA: -0.0352
CCTGTCCA: -0.192
AATTGCAA: 0.271
CGGCAGGA: -0.424
ATATCTGC: 0.169
ACTTTGGC: -0.125
AACGCCCT: -0.114
CACGCCCA: -0.269
GACTCTGA: 0.0194

Sample 5
Target: Ras GTPase-activating protein-binding protein 1, full length (G3BP1, Homo sapiens, UniProt Q13283)
UniProt Q13283, sequence (whole entry, looked up): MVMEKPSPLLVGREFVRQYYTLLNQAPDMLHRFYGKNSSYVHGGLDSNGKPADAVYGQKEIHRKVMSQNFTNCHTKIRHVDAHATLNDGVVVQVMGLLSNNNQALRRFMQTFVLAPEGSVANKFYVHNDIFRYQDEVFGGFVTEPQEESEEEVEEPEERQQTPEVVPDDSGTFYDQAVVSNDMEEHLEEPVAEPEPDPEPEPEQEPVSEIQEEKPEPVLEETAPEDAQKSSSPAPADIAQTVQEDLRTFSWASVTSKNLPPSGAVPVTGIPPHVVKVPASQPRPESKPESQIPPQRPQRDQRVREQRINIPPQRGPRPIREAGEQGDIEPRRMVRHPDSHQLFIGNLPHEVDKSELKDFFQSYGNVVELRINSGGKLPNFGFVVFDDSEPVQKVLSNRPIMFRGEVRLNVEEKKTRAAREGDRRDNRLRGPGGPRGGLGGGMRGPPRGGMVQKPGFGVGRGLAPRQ
Method: RNA Bind-n-Seq
Form: RNA
Medium: in vitro
Concentration: 200 nM
Setting: whole 134-nt RNA, ends assumed
Added: 150 mM LiCl
Baseline: input library
Direction: higher = stronger binding
Endpoint: log2 enrichment
Each molecule: 7-deaza-guanosine replaces G
Constant ends, left off below: GGGAGUUCUACAGUCCGACGAUC … UGGAAUUCUCGGGUGUCAAGG
CUGUGCUACACAUCGUAUGUACCGAAUCGGGGUUUUUUUGGGGUUUUUGGGGUUUUUGGGGAAAGUAUUAUGUUACGCCGUUCGGAUCUG: 1.47
UGGCCCUGGUGGCAUGCGGGGAGGAAGAGGUGGCCUCAUGGAUCGUGGUGGUCCCGGUGGAAUGUUCAGAGGUGGCCGUGGUGGAGAUAG: 0.321
UGGGAGGUGGAUGUUGUUUAUUUUUUUAGCUCAUUUCCAGGGGUGGGAAUUUUUUUUUAAUAUGUGUCAUGAAUAAAGUUGUUUUUGAAA: -0.104
UGGGAGGUGGAUUUUGUUUAUUUUUUUAGCUCAUUUCCAGGGGUGGGAAUUUUUUUUUAACAUGUGUCAUGAAUAAAGUUGUUUUUGAAA: -0.56
UAACUUUAGAGGAGGAUCUGAUGGAUAUGGCAGUGGACGUGGAUUUGGGGAUGGCUAUAAUGGGUAUGGAGGAGCACCUGGAGGUGGCAA: 0.282
ACCAUGCAGGUGGGCAUCUUUGGGAAGUGGGGCAAGGGGGGGAUAGGGAGGGGGGUAACACUUUGGGAACAGGAGGUCCCAGGUCGUUUC: -0.0452
UCCUGUGCUACACAUCGUAUGUACCGAAUCAAACCCCCAAACCCCCCCAAAUUUUUAAAAAAGUAUUAUGUUACGCCGUUCGGAUCUGCA: 0.875
GCAGGAAGUAAAAACAAUUGGAAAUGCUUCGGAUAGUGGCAGGGGUGGGGGUUGCUAAGGAAAGGGUGGGAUGGGAGUGGGUAAAGAGUU: 0.0707

A few entries again (sample 3):
ACATTCA: 0.388
ATTATTG: 0.422
AATGGCT: 0.281
CAATGAA: 0.377
AATAGTA: 0.311
CGATTCA: 0.326
ATTATAA: 0.372
